Measurements pooled from the literature.
Protocols differ between the studies behind these lines.
RPS6KA3 N-terminal kinase domain: Ribosomal protein S6 kinase alpha-3, N-terminal kinase domain (RPS6KA3, Homo sapiens, UniProt P51812)
RPS6KA3 C-terminal kinase domain: Ribosomal protein S6 kinase alpha-3, C-terminal kinase domain (RPS6KA3, Homo sapiens, UniProt P51812)

SMILES | target | observed | method | concentration | reference | remaining binding
CNC1C[S+]2CC[S+]3CC[S+](C1)[Ru-4]321([N]=C=S)[n]2c3ccc(OC)cc3c3c4c(c5cc(F)c[n+]1c5c32)C(=O)NC4=O (stereo not drawn) | RPS6KA3 N-terminal kinase domain | – | KinomeScan | 0.1 µM | untreated | 33%
Cc1cnc2nc1Nc1cccc(c1)COC/C=C/COCc1cc(ccc1OCCN1CCOCC1)N2 | RPS6KA3 C-terminal kinase domain | binding | competition with immobilised ligand | 0.1 µM | – | 73%
C=CC(=O)N1CCCC(n2c(=O)c3ncccc3n(Cc3ccc(Oc4ccccc4)cc3)c2=O)C1 (stereo not drawn) | RPS6KA3 N-terminal kinase domain | binding | competition with immobilised ligand | 1 µM | – | 69%
COc1cc(Nc2nccc(-c3cnn4nc(OC)ccc34)n2)cc(C(F)(F)F)c1 | RPS6KA3 N-terminal kinase domain | binding | competition with immobilised ligand | 1 µM | – | 86%
COc1c(Cl)cccc1Nc1c(-c2ccncc2C#C[C@@]2(C)CCCN2C(=O)/C=C/CN(C)C)[nH]c2c1C(=O)NCC2 | RPS6KA3 C-terminal kinase domain | binding | competition with immobilised ligand | 3 µM | – | 100%
C=CC(=O)N1CCc2ccc(-n3c(=O)ccc4cnc5ccc(-c6cnn(C)c6)cc5c43)cc21 | RPS6KA3 N-terminal kinase domain | – | KINOMEscan | 1 µM | DMSO control | 100%
CNC(=O)C1CCN(c2cc(C)c(F)cc2NC(=O)c2ccc(-c3cc(O)ccc3C)c(C)c2)CC1 | RPS6KA3 N-terminal kinase domain | binding | competition with immobilised ligand | 1 µM | – | 86%
Nc1ncc2c(n1)-c1c([nH]c3ccc(C4=CCOCC4)cc13)CCC2 | RPS6KA3 N-terminal kinase domain | binding | competition with immobilised ligand | 1 µM | – | 61%
Cc1ccc(-c2c(/C=C(\C#N)C(=O)NC(C)C)n(CCCO)c3ncnc(N)c23)cc1 | RPS6KA3 N-terminal kinase domain | binding | competition with immobilised ligand | 1 µM | – | 79%
COc1cc(Nc2nc(C)cc(-c3cnn4nc(OC)ccc34)n2)cc(C(F)(F)F)c1 | RPS6KA3 C-terminal kinase domain | binding | competition with immobilised ligand | 1 µM | – | 98%
COc1ccc(NC(=O)Nc2ccc3c(c2)C(=O)N(C(C)CO)CC(C)C(CN(C)Cc2ccc4c(c2)OCO4)O3)cc1 (stereo not drawn) | RPS6KA3 N-terminal kinase domain | binding | competition with immobilised ligand | 10 µM | – | 80%
CC(=O)N1c2ccc(-c3ccc(CNC(=O)c4cn5cc(-c6cnc(N)nc6)nc(N6CCOCC6)c5n4)cc3)cc2CC[C@@H]1C | RPS6KA3 N-terminal kinase domain | – | KINOMEscan | 10 µM | – | 85%
CCN1CCN(Cc2ccc(C(=O)Nc3ccc(C)c(NCc4cnc5[nH]ccc5c4OC)c3)cc2C(F)(F)F)CC1 | RPS6KA3 C-terminal kinase domain | binding | competition with immobilised ligand | 1 µM | – | 100%
CC(C)=CC1OC(C)(C)C2C=C3C(=O)C(Cl)=CC(O)C3C3C(O)C4OC4C(=O)C132 (stereo not drawn) | RPS6KA3 N-terminal kinase domain | cell-free assay | competition with immobilised ligand | 10 µM | – | 56%
CN1CCN(Cc2ccc(NC(=O)c3cccc(C#Cc4cnc(N)c5ncccc45)c3)cc2C(F)(F)F)CC1 | RPS6KA3 N-terminal kinase domain | cell-free assay | competition with immobilised ligand | 0.5 µM | – | 21%

Excerpt of the above:
SMILES | target | observed | method | concentration | reference | remaining binding
COc1cc(Nc2nccc(-c3cnn4nc(OC)ccc34)n2)cc(C(F)(F)F)c1 | RPS6KA3 N-terminal kinase domain | binding | competition with immobilised ligand | 1 µM | – | 86%
CC(=O)N1c2ccc(-c3ccc(CNC(=O)c4cn5cc(-c6cnc(N)nc6)nc(N6CCOCC6)c5n4)cc3)cc2CC[C@@H]1C | RPS6KA3 N-terminal kinase domain | – | KINOMEscan | 10 µM | – | 85%
